# Assay results from different studies.
# Every numbered part comes from another study and shows a few of its results, in no order. Several values in a cell are separate wells, animals, samples, runs or records.
# Chain of UniProt Q16816 (whole entry, looked up): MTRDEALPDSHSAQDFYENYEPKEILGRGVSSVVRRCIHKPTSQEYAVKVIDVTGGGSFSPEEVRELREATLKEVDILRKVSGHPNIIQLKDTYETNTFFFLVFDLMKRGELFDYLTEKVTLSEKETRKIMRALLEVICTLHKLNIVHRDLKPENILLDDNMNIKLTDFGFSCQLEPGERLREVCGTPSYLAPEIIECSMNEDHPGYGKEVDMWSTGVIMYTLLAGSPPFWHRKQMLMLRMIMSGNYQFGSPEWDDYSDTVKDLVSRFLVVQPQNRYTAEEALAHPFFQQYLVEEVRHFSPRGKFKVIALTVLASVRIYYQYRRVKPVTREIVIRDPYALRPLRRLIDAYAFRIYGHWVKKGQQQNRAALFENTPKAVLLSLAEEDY
# Chain of UniProt O43293 (whole entry, looked up): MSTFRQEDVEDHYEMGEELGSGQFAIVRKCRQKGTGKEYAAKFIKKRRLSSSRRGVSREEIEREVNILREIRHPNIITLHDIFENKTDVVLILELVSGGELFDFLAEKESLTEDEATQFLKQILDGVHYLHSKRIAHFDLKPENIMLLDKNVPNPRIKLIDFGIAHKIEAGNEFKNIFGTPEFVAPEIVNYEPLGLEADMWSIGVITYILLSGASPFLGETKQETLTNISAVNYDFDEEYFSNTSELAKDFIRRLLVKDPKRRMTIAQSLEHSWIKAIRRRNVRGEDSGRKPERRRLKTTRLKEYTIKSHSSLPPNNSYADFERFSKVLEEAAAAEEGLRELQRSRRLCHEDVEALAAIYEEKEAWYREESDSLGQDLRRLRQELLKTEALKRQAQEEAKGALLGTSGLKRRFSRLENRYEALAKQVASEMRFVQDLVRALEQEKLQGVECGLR
# Chain of UniProt Q8NFD2 (whole entry, looked up): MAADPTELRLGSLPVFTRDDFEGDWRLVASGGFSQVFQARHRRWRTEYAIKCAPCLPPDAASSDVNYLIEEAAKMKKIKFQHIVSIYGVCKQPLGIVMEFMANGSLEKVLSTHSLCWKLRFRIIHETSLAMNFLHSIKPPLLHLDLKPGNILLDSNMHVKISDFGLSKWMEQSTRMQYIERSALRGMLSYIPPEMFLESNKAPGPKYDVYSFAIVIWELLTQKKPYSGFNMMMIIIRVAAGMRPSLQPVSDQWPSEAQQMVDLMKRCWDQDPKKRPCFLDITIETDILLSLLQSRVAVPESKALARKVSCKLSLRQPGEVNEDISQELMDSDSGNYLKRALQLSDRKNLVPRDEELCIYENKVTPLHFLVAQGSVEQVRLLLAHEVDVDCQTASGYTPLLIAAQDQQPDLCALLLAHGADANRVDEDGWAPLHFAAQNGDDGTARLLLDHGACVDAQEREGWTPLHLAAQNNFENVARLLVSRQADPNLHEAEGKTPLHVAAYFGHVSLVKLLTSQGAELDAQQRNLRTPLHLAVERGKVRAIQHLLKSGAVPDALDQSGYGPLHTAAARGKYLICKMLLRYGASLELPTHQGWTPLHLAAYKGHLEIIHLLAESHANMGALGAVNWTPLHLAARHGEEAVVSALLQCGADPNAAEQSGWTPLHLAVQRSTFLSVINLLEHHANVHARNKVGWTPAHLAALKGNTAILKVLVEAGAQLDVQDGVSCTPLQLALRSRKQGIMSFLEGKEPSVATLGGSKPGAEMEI
# Chain of UniProt P42336 (whole entry, unmodified, looked up): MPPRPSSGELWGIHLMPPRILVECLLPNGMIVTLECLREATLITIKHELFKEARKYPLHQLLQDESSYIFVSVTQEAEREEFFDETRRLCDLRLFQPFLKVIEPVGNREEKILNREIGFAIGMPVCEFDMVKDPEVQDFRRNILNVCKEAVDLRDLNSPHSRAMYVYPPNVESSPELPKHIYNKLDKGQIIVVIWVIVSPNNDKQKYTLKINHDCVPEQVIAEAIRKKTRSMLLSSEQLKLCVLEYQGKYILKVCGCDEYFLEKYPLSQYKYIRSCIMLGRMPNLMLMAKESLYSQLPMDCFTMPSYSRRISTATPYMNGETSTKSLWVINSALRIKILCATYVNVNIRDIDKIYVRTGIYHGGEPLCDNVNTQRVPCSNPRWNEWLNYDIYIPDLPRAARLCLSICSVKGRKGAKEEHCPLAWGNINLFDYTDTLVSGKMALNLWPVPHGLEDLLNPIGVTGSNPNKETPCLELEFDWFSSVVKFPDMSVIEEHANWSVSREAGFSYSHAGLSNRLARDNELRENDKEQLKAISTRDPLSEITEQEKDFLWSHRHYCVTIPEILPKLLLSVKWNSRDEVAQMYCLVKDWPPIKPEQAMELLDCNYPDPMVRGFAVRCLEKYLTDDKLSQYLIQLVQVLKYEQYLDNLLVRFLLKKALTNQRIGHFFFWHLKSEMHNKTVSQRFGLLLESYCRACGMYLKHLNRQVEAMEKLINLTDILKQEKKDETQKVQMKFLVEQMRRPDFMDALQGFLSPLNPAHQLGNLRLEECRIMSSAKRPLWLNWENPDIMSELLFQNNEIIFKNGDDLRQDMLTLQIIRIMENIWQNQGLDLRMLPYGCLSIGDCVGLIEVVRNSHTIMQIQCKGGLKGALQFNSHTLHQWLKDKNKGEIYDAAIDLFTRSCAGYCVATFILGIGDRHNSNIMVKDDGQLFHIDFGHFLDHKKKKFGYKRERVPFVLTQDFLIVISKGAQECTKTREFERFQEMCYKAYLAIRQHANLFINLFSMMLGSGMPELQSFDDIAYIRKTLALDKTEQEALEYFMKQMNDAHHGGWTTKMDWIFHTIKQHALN
# Chain of UniProt O75747 (whole entry, looked up): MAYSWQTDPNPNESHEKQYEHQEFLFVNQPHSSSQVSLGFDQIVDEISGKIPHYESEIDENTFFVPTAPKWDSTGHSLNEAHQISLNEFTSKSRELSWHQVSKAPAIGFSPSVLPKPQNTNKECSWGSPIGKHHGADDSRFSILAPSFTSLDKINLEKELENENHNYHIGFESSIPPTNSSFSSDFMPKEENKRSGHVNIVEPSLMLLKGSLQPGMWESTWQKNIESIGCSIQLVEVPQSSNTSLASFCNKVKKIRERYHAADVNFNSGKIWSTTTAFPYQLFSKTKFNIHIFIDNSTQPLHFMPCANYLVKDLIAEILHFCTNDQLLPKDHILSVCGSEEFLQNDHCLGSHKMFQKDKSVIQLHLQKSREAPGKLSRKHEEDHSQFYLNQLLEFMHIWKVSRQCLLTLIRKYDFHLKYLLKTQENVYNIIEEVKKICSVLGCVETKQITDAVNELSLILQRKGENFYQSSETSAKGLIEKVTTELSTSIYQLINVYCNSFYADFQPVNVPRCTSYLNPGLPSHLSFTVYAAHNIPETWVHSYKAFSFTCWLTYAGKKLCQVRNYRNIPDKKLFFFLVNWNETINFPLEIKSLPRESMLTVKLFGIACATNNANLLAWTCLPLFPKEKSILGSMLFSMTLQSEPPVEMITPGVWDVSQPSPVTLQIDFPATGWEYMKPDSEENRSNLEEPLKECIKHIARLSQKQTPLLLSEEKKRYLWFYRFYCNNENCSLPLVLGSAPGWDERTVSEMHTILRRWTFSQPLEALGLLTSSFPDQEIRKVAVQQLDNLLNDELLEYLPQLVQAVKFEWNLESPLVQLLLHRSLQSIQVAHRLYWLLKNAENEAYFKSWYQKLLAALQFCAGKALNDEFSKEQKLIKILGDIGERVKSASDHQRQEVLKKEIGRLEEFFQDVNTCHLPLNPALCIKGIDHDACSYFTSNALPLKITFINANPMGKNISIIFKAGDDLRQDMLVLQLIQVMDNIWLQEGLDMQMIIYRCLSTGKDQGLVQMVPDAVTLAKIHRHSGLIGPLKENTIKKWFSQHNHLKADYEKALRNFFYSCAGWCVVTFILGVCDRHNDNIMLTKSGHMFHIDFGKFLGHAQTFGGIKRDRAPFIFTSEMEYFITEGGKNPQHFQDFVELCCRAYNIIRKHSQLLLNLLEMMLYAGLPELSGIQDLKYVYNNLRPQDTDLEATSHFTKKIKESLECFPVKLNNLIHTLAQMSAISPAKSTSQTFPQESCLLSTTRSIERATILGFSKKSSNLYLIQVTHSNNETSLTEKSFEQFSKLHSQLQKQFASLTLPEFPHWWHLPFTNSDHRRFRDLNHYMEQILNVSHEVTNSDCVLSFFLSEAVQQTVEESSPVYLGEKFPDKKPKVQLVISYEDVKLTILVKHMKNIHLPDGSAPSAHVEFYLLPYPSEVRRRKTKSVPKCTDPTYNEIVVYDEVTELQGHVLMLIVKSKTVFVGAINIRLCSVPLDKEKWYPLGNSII

# Series 1 — cell line: mouse MPNST tumor cells; method: high-content nuclear imaging; refers to: cell number; tested at: 10 µM; time: 12 h; setting: mean of 2 replicates; baseline: plate mean; reading: higher = more cells
SMILES,nuclei count
Cc1c(C)c2c(c(C)c1O)CCC(C)(COc1ccc(CC3SC(=O)NC3=O)cc1)O2 (stereo not drawn),1.14 z-score and 2.7 z-score
CC(C)C(=O)SCCCCC[C@H](NC(=O)OC(C)(C)C)C(=O)NC12CC3CC(CC(C3)C1)C2,-0.238 z-score
Nc1nccc(-c2ccc3noc(-c4ccc(Cl)cc4)c3c2)n1,2.41 z-score
O=C(NCCCCCCNC(=O)ON=C1CCCCC1)ON=C1CCCCC1,0.191 z-score
CN(C)C(=N)NC(=N)N,1.84 z-score and 2.78 z-score and 0.728 z-score
COc1cc2c(cc1C(F)(F)F)N(C(=O)Nc1cc(F)cc(-c3cccnc3)c1)CC2,-5.09 z-score

# Series 2 — effect on: binding; action: competitor; method: NanoBRET; cell line: HEK293
# SMILES: C=C(F)C(=O)N1CCN(c2nc(OC[C@@H]3CCCN3C)nc3c2CCN(c2cccc4cccc(Cl)c24)C3)C[C@@H]1CC#N
# Target: GTPase HRas (HRAS, Homo sapiens, UniProt P01112)
conditions,normalized BRET
38.1 pM,93.7%
247 nM,92.7% and 96.6%
10 µM,123%
9.77 nM,92.7%
6.67 µM,140% and 144%

# Series 3 — host: human; medium: microsomes or S9; tested at: 2 µM; time: 0.5 h
SMILES,remaining compound [%]
CC(=O)/N=C1\N(c2ccc(Cl)cc2Cl)C(=O)N(S(=O)(=O)c2ccc(Cl)cc2)C1(C)C(C)C (stereo not drawn),8.74
O=C(C1CCN(C2=NS(=O)(=O)c3ccccc32)CC1)N1CCCc2ccccc21,9.1
O=C(COc1ccc(Cl)cc1Cl)OCCNC1=NS(=O)(=O)c2ccccc21,< 1
CCn1[nH]cc/c1=N\C(=O)c1nn(-c2ccccc2)c(=O)c2ccccc12,47.6
CCn1c(=O)c2sccc2n2c(CCC(=O)NCc3ccc(F)cc3)nnc12,48
CCCn1c(=O)c2ccc(C(=O)NC(C)C)cc2n2c(=O)n(Cc3ccc(C)cc3)nc12,> 100
Clc1ccc2ccn(Cc3ccccc3Br)c2n1,9.21
O=C1CCc2cc3oc(-c4ccc(F)cc4)nc3cc21,> 99
O=c1[nH]c(N2CCCCC2)nc2ncc3c(c12)-c1ccccc1C3,9.61

# Series 4 — effect on: binding; tested at: 1 µM
# Compound: Cc1ccc(NC(=O)c2ccnc(C(F)(F)F)c2)cc1-c1cc(OCCO)nc(N2CCOCC2)c1
target,test,remaining binding [%]
"Phosphatidylinositol 4,5-bisphosphate 3-kinase catalytic subunit alpha isoform (PIK3CA, Homo sapiens, UniProt P42336, C420R)",,94
"Ankyrin repeat and protein kinase domain-containing protein 1 (ANKK1, Homo sapiens, UniProt Q8NFD2)",,81
"Phosphorylase b kinase gamma catalytic chain, skeletal muscle/heart isoform (PHKG1, Homo sapiens, UniProt Q16816)",,100
"Death-associated protein kinase 3 (DAPK3, Homo sapiens, UniProt O43293)",,100
"Phosphatidylinositol 3-kinase C2 domain-containing subunit gamma (PIK3C2G, Homo sapiens, UniProt O75747)",,96
"Serine/threonine-protein kinase NLK (NLK, Homo sapiens, UniProt Q9UBE8)",competition with immobilised ligand,100

# Series 5 — effect on: ligand displacement; tested at: 10 µM
# Target: Beta-1 adrenergic receptor (ADRB1, Homo sapiens, UniProt P08588)
# Chain of UniProt P08588 (whole entry, looked up): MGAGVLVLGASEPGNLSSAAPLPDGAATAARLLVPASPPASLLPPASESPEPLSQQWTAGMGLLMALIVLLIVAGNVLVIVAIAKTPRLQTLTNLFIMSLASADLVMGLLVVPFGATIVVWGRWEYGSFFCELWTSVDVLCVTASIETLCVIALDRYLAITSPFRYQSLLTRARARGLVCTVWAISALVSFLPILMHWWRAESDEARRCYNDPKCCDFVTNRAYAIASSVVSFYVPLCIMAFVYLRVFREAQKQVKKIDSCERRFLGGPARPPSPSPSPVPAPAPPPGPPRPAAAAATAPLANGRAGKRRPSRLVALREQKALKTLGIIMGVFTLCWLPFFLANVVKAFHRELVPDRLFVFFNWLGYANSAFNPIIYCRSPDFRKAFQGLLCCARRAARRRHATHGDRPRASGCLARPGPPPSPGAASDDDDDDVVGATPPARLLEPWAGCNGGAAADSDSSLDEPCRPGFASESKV
SMILES,inhibition [%]
Cn1cc(Cl)c2c(Oc3c(F)cc(Nc4cc(Cl)nc(N)n4)cc3F)ccnc21,-2.51
CN(C)c1ncnc(-c2ccc3nc(Nc4cc(CN5CCN(C(=O)CC(F)(F)F)CC5)ccn4)[nH]c3c2)c1Cl,-6.2
NS(=O)(=O)c1cc(NC(=O)Cc2ccccc2)ccc1Oc1cccc(Cl)c1,14.3
CC(=O)Nc1ncc(CN2CCC[C@H](Cc3cc(C)nc(C)c3)C2)s1,3.29
C[C@@H]1CN(c2cc(-c3n[nH]c4ccc(OC5(C)CC5)cc34)ncn2)C[C@H](C)O1,-20.6
C[C@@H](c1cccc(C#N)c1)n1cc(Cl)cc(C(N)=O)c1=N,-30.6
COCCOc1nc(-c2ccc(Cl)nc2)nc2c1CN(C(=O)c1ncn3ccccc13)CC2,16.8
COc1ccc2cc(OCC3(C(=O)O)CN(C(=O)c4ccc(F)cc4)C3)ccc2c1,-12.2
CN1CCN(c2cnc3c(C4CCN(C(=O)c5ccc(OC(F)(F)F)cc5N)CC4)ncnc3c2)CC1,12.6
C[C@H](c1ccc(F)cc1)N(Cc1cccc(C(=O)O)c1)C(=O)c1cnc2ccccc2c1,7.42
c1ccc(N2CCN(Cc3nc4ccccc4[nH]3)CC2)nc1,12.3
CN1CCN(C(=O)C(C)(C)c2ccc(C(=O)Nc3cn4cc(-c5cc(C(C)(C)C)cc(C(C)(C)C)c5)ccc4n3)cc2)CC1,28
Cc1ncc(-c2cc(Cl)ccc2F)cc1-n1c(=O)n(CC(N)=O)c2ccccc21,25.8
CCC(F)(F)c1cc(N2CCC(S(C)(=O)=O)CC2)nc2sc(C(N)=O)c(N)c12,-8.38
CC[C@H](CC(=O)O)n1c(=O)c2ncccc2n(Cc2cn(C)c3cc(C)cc(C)c23)c1=O,10.4
COc1cc(-c2cn(C3CCc4c(F)cccc4N(CC(F)(F)F)C3=O)nn2)ccc1-n1cnc(C)c1 (stereo not drawn),2.45
Cc1c(NC(=O)c2cc(C(N)=O)nc3cc(F)ccc23)c(C(F)(F)F)nn1Cc1ccc(C#N)cc1,28.5
O=c1nc(-c2ccccn2)sc2ccccc12,-8.56
COc1cc(N[C@@H]2CCCC[C@]2(O)C(F)(F)F)ccc1F,-0.24
O=C1NC(c2ccccn2)Sc2ccccc21 (stereo not drawn),-1.52
CNC(=O)Nc1ccc2c(c1)CC[C@]21OC(=O)N(CC(=O)N(Cc2ccc(F)cc2)[C@@H](C)C(F)(F)F)C1=O,-5.22
CS(=O)(=O)N1CCCC(NC(=O)[C@H](CCC2CCCCC2)NC(=O)c2ccc(CNC(=O)c3cnc4ccccn34)cc2)C1 (stereo partly drawn),20.3
Cc1ccc(-c2cnc([C@@]3(O)CC[C@H](C(=O)O)C(C)(C)C3)s2)cc1Nc1cccc(C(F)(F)F)n1,10.3
O=C(NCCCC1CCCCC1)c1ccc(CNC(=O)c2cnn(-c3ccccc3)c2C(F)(F)F)cc1,21.9
Nc1nc(NCc2ccccc2)nc(-c2ccccc2CO)n1,25.5

# A few entries again (series 1):
SMILES,nuclei count
CC(C)C(=O)SCCCCC[C@H](NC(=O)OC(C)(C)C)C(=O)NC12CC3CC(CC(C3)C1)C2,-0.238 z-score
Cc1c(C)c2c(c(C)c1O)CCC(C)(COc1ccc(CC3SC(=O)NC3=O)cc1)O2 (stereo not drawn),1.14 z-score and 2.7 z-score
O=C(NCCCCCCNC(=O)ON=C1CCCCC1)ON=C1CCCCC1,0.191 z-score
Nc1nccc(-c2ccc3noc(-c4ccc(Cl)cc4)c3c2)n1,2.41 z-score
COc1cc2c(cc1C(F)(F)F)N(C(=O)Nc1cc(F)cc(-c3cccnc3)c1)CC2,-5.09 z-score
